{"data": "Experimental data from different studies", "note": "A part holds a random share of what one study measured. Substitutions count along the parent as printed."}
{"data": "Block 1", "target": "Runt-related transcription factor 3, Runt domain (RUNX3, Homo sapiens, UniProt Q13761, residues 53-186)", "method": "protein-binding microarray", "molecule type": "hairpin DNA", "sample": "in vitro", "concentration": "not given", "notes": "whole hairpin DNA, median over replicate spots", "reference": "not given", "direction": "higher = stronger binding", "sequence of UniProt Q13761 (53-186, looked up)": "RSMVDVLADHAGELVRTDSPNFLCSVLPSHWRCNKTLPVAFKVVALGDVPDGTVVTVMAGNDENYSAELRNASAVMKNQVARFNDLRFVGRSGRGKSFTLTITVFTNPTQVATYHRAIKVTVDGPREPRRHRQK"}
{"Strand": "GAGGCCTGTTGTGGTTCGCCTCCTGGCGAACCACAACAGGCCTCACACTC (5mC at 17)", "median fluorescence [a.u.]": 4820}
{"Strand": "GAGGCCTGTTGCCGTTGGCCTCCTGGCCAACGGCAACAGGCCTCACACTC (5mC at 31)", "median fluorescence [a.u.]": 4670}
{"Strand": "GAGGCCTGTCGCGGTTGGCCTCCTGGCCAACCGCGACAGGCCTCACACTC (5mC at 28)", "median fluorescence [a.u.]": 6190}
{"Strand": "CTCAGTTCTGTGGACTGGACTCCTGTCCAGTCCACAGAACTGAGACACTC", "median fluorescence [a.u.]": 3830}
{"Strand": "GAGGCCGGTTGTGGTTGGCCTCCTGGCCAACCACAACCGGCCTCACACTC", "median fluorescence [a.u.]": 6330}
{"Strand": "GAGGCCTGTCGCGTTTGGCCTCCTGGCCAAACGCGACAGGCCTCACACTC", "median fluorescence [a.u.]": 5020}
{"Strand": "GAGGCCTGTGGTGGTTGGCCTCCTGGCCAACCACCACAGGCCTCACACTC (5mC at 35)", "median fluorescence [a.u.]": 5030}
{"Strand": "GAGGCCTGTCGCGGTTGGCCTCCTGGCCAACCGCGACAGGCCTCACACTC (5mC at 10 12)", "median fluorescence [a.u.]": 5950}
{"Strand": "CTCAGTGCTGTGGGCTGGACTCCTGTCCAGCCCACAGCACTGAGACACTC", "median fluorescence [a.u.]": 4370}
{"Strand": "GAGGCCTGTCGCGGTTGGCCTCCTGGCCAACCGCGACAGGCCTCACACTC (5mC at 10 12 34)", "median fluorescence [a.u.]": 6290}
{"Strand": "GAGGCCTGTCCGGGTTGGCCTCCTGGCCAACCCGGACAGGCCTCACACTC (5mC at 33)", "median fluorescence [a.u.]": 4920}
{"Strand": "GAGGCCCGTTGCGGTTGGCCTCCTGGCCAACCGCAACGGGCCTCACACTC (5mC at 7 37)", "median fluorescence [a.u.]": 9430}
{"data": "Block 2", "target": "Centromere-binding protein 1, full length, N-terminal tag (CBF1, Saccharomyces cerevisiae, UniProt P17106, residues 1-351)", "method": "protein-binding microarray", "molecule type": "double-stranded DNA, one strand shown", "sample": "in vitro", "concentration": "0.8 µM", "notes": "whole 60-bp probe, no competitor", "direction": "higher = stronger binding", "sequence of UniProt P17106 (whole entry, looked up)": "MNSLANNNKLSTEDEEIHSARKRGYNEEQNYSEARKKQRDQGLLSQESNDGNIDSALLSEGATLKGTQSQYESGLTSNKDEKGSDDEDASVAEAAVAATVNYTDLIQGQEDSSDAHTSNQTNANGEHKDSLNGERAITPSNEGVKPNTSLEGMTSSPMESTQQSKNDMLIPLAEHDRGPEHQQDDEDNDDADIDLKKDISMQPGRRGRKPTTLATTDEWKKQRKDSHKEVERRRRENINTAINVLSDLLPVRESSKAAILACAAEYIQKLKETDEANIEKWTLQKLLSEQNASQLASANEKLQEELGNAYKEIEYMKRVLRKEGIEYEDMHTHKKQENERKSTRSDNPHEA"}
{"Strand": "GAAGATGTATACAGGCACGCTCGCACACTCACATAGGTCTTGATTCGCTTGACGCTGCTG", "fluorescence intensity": "532 a.u."}
{"Strand": "GAATCCAAGAATATAGATGTGACCATCCTGTTATAGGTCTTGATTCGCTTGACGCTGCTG", "fluorescence intensity": "516 a.u."}
{"Strand": "GAAGGCACAGGAAACCCCGTGCACTCTGCCACTTAGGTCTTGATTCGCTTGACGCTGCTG", "fluorescence intensity": "701 a.u."}
{"Strand": "CTAATGTAATAGCCAGACGTGATTCCCCTAAACTTCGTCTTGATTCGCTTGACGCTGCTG", "fluorescence intensity": "543 a.u."}
{"Strand": "GAAGATGCACAATGGCACATGCAGTTGGGTGCATAGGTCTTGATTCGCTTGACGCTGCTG", "fluorescence intensity": "645 a.u."}
{"data": "Block 3", "target": "PABPC1L2, full length, GST fusion (mouse, UniProt A0ABA7IW68)", "method": "RNAcompete", "molecule type": "RNA", "sample": "in vitro", "concentration": "20 nM", "notes": "7-mer, probes averaged, single round", "reference": "mean of 7-mers", "direction": "higher = stronger binding", "Construct (chain)": "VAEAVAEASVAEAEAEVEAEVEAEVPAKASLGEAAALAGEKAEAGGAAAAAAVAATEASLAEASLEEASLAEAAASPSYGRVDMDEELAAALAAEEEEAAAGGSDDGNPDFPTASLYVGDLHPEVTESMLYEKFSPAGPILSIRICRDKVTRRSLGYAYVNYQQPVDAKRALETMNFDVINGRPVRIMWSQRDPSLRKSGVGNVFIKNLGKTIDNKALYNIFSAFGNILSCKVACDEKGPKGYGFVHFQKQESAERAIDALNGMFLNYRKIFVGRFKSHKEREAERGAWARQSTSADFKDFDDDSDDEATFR"}
{"Strand": "UUAGACA", "7-mer Z-score": -0.0192}
{"Strand": "AGAAGGU", "7-mer Z-score": -0.0228}
{"Strand": "GGAAUAU", "7-mer Z-score": -0.0446}
{"Strand": "CAGACUA", "7-mer Z-score": -0.115}
{"Strand": "AACGUCC", "7-mer Z-score": 0.00436}
{"Strand": "GGCAUCG", "7-mer Z-score": -0.00108}
{"Strand": "AGCUAAC", "7-mer Z-score": -0.324}
{"Strand": "AAGCCUU", "7-mer Z-score": -0.05}
{"Strand": "ACUUCGU", "7-mer Z-score": -0.306}
{"Strand": "CCGAGAU", "7-mer Z-score": -0.128}
{"Strand": "UAAAGUU", "7-mer Z-score": 0.535}
{"Strand": "UGCGAGC", "7-mer Z-score": -0.209}
{"Strand": "CUAAGGA", "7-mer Z-score": -0.128}
{"Strand": "GCUUAGG", "7-mer Z-score": -0.0518}
{"Strand": "CACCUUA", "7-mer Z-score": -0.253}
{"data": "Block 4", "target": "Sal-like protein 4, full length isoform A (SALL4, Homo sapiens, UniProt Q9UJQ4, residues 1-1053)", "method": "universal PBM", "molecule type": "double-stranded DNA, one strand shown", "sample": "in vitro", "concentration": "600 nM", "notes": "8-mer, flanks averaged, mean of replicates", "direction": "higher = stronger binding", "sequence of UniProt Q9UJQ4 (whole entry, looked up)": "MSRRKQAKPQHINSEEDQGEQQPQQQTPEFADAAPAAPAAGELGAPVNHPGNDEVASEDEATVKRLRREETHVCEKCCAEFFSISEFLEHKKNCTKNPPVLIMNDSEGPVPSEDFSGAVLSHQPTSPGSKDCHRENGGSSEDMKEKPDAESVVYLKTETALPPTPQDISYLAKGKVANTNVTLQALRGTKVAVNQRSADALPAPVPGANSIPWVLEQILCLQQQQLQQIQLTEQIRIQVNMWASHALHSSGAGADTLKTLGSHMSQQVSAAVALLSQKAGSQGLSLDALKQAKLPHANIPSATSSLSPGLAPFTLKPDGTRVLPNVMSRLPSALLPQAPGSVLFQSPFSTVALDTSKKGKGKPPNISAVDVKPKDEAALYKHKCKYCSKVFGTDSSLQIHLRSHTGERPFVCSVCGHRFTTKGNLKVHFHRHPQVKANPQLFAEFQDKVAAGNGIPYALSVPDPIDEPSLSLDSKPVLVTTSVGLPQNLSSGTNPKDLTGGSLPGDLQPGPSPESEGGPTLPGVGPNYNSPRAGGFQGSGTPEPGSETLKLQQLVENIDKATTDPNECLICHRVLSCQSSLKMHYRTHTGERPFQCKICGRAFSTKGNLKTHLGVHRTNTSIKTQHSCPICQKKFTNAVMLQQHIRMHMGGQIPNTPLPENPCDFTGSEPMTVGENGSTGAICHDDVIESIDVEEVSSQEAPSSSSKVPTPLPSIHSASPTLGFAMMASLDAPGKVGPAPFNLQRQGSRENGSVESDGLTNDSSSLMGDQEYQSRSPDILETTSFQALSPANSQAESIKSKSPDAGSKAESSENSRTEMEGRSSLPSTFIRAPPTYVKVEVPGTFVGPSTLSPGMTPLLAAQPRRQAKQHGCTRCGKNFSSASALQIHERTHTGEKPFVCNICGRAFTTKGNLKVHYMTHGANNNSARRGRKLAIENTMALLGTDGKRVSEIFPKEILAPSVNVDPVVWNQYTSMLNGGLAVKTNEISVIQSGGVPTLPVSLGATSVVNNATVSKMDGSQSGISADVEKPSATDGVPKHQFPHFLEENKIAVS"}
{"Strand": "ATCCGGCG", "E-score": -0.326}
{"Strand": "CGCGTCCG", "E-score": -0.209}
{"Strand": "ACATCATG", "E-score": 0.0156}
{"Strand": "GCGCTAAA", "E-score": -0.0736}
{"Strand": "CCTATAGA", "E-score": 0.156}
{"Strand": "AATAGGAA", "E-score": 0.279}
{"Strand": "CTGACGGC", "E-score": -0.197}
{"Strand": "CACCGCAA", "E-score": -0.049}
{"Strand": "GGGTGCGA", "E-score": -0.184}
{"Strand": "GGGATTGA", "E-score": -0.0314}
{"data": "Block 5", "target": "RNA binding protein fox-1 homolog 2, RRM domain, GST-SBP tag (RBFOX2, Homo sapiens, UniProt O43251-10, residues 100-194)", "method": "RNA Bind-n-Seq", "molecule type": "RNA", "sample": "in vitro", "concentration": "365 nM", "notes": "natural RNA segment, single round, ends assumed", "reference": "no-protein control", "direction": "higher = stronger binding", "Residues (chain)": "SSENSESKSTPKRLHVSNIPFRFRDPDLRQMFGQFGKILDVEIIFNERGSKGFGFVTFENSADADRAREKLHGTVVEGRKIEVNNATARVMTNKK"}
{"Strand": "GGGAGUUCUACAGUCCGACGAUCCACCACCUCUGCCAUGCCCUGUAUCCCGAGAGCUGCACACACUGCUUCCAGAUUGCUGGUUCCAGAAGAUGUAAUUUGCCACUGUGUGCUGCACGGCUAGGGAGUGUCAUUGGAAUUCUCGGGUGCCAA", "RBNS enrichment (R)": 0.675}
{"Strand": "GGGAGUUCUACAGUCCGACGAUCGCCGGGCGCGGUGGCUCACGCCUGCAAUCCCAACACAUUGGGGGGUCGAGGCGGACGGAUCACUUUGAGCCCAGGAGUUCAAGACCAGCCUGGGCAACAUGGCGAAACCUUGGAAUUCUCGGGUGCCAA", "RBNS enrichment (R)": 0.249}
{"Strand": "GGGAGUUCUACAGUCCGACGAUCCUGCAGGCACACAAAAUAAAAUAACUCGUGCUCAUUUGGAAUGUAACUCCUGGCACAGUGUUCCUAGACCCCCAGGCUGCAUGGGGGACAGGAGGGCCUGUAGAUAACCCUGGAAUUCUCGGGUGCCAA", "RBNS enrichment (R)": 0.813}
{"Strand": "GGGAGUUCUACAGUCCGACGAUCGGAGCGUCAAAGGUGACCUUUACCCUCACAGCGUACCAAUAAACCACGGUGCCAGCUUUGGAGAUGAGGAUUGGGGACUCUUGUCUGUCAAGAAGGCACCCAAGCGCUCAUGGAAUUCUCGGGUGCCAA", "RBNS enrichment (R)": 0.275}
{"Strand": "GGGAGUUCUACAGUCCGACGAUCACUGGUCAAUUCAGCAUAUGGAAGUAUAAAUGCAGUCUUUUUACUAGGCAGAUAUAUAUGCUAUCUUACAGCUAAUUAUGAAAUUGAAUGAAAAUCCAUUGUUAUCUUAGUGGAAUUCUCGGGUGCCAA", "RBNS enrichment (R)": 0.443}
{"Strand": "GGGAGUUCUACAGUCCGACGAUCAAUGCGUCAAAAAAUGUGCAGAAAAUGUAUUGCAUCCCUUGAUACUGUCUAACGAAUAGCACAUAACUCAUAUUGUGAAUCCUAUGGGUCUUGAGGCCUGUAGAACCAAUUGGAAUUCUCGGGUGCCAA", "RBNS enrichment (R)": 0.784}
{"Strand": "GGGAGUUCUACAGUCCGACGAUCUAGGUCAGCCUAGCGGAACUUUUUUUUUCAUUUAAAUGGAGCUGAAUAAUGGAGAUUUUGUGUCUGCAAAAUUCCUGAGAUCAUUGAAAAAGUAACAAGCUGUUCCUUGUUGGAAUUCUCGGGUGCCAA", "RBNS enrichment (R)": 0.366}
{"Strand": "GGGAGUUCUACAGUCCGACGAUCUCAGGAGAGAGCAGGUCUGAGGAAUAUGCAAAACUGUAGUUACUGUGUGGGCCAUUGACUGCCUUGACCAGUAGAAGGGAUAACUAUUACACAGAUAGGCAGGCAGGGUGUGGAAUUCUCGGGUGCCAA", "RBNS enrichment (R)": 0.63}
{"Strand": "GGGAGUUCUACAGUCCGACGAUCUCUGUGACUUAGGCUAGCCCUAGGGUACUGAGGUGGCAGCUGCAUGGCUGUGGCCUGAAGUUGCACUUGCAAAGGUCCUGCUUCUACAGGACGCUGAGGUACUUACUACCUGGAAUUCUCGGGUGCCAA", "RBNS enrichment (R)": 0.218}
{"Strand": "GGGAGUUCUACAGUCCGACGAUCUGCCUCCAGCUCCAAGGACUCUGCCUACAGGAGUGUGCCUUGGGGCUGAAAGGCCAUGCAAACACAACAAACUAAUAACUCAGUCCCAAAGCACCCUGCAGCCCUGCAGAUGGAAUUCUCGGGUGCCAA", "RBNS enrichment (R)": 0.306}
{"data": "Block 6", "target": "CCNE2, cyclin fold, Cln2 fusion (human)", "method": "yeast growth competition, sequencing", "sample": "yeast", "notes": "weak parent motif", "reference": "not given", "direction": "higher = stronger binding", "starting sequence": "MASTL docking peptide (human); PMIAKNLMCELDE"}
{"Substitution": "PMIAKNEMCELDE [L7E]", "normalised enrichment score": 0.421}
{"Substitution": "PMIAKNLMCELYE [D12Y]", "normalised enrichment score": -0.437}
{"Substitution": "PMIAKNLMCFLDE [E10F]", "normalised enrichment score": -0.204}
{"Substitution": "PLIAKNLMCELDE [M2L]", "normalised enrichment score": -0.231}
{"Substitution": "PMIAKNLMGELDE [C9G]", "normalised enrichment score": -0.328}
{"Substitution": "PMIAKNLSCELDE [M8S]", "normalised enrichment score": -0.234}
{"Substitution": "PMIAKNLMCELKE [D12K]", "normalised enrichment score": -0.0415}
{"Substitution": "PMIALNLMCELDE [K5L]", "normalised enrichment score": -0.0297}
{"Substitution": "PMISKNLMCELDE [A4S]", "normalised enrichment score": -0.107}
{"Substitution": "PMIAKNLMCEIDE [L11I]", "normalised enrichment score": 0.176}
{"Substitution": "PMHAKNLMCELDE [I3H]", "normalised enrichment score": -0.299}
{"Substitution": "PMIAKKLMCELDE [N6K]", "normalised enrichment score": 0.182}
{"Substitution": "PMIATNLMCELDE [K5T]", "normalised enrichment score": -0.154}
{"Substitution": "PMIAKMLMCELDE [N6M]", "normalised enrichment score": -0.0844}
{"Substitution": "PEIAKNLMCELDE [M2E]", "normalised enrichment score": -0.181}
{"Substitution": "PMKAKNLMCELDE [I3K]", "normalised enrichment score": 0.0638}
{"note": "For quick reference, copied from above (block 6):"}
{"Substitution": "PMIAKNEMCELDE [L7E]", "normalised enrichment score": 0.421}
{"Substitution": "PMIAKNLMCELYE [D12Y]", "normalised enrichment score": -0.437}
{"Substitution": "PMIAKNLMCELKE [D12K]", "normalised enrichment score": -0.0415}
{"Substitution": "PMISKNLMCELDE [A4S]", "normalised enrichment score": -0.107}
{"Substitution": "PMIAKMLMCELDE [N6M]", "normalised enrichment score": -0.0844}
{"Substitution": "PMIAKKLMCELDE [N6K]", "normalised enrichment score": 0.182}
{"Substitution": "PMKAKNLMCELDE [I3K]", "normalised enrichment score": 0.0638}
{"Substitution": "PMIATNLMCELDE [K5T]", "normalised enrichment score": -0.154}
{"Substitution": "PLIAKNLMCELDE [M2L]", "normalised enrichment score": -0.231}
